Experimental data of several laboratories.
A part holds a random share of what one study measured.

Set 1 — technique: RNA Bind-n-Seq; form: RNA; matrix: in vitro; tested at: 200 nM; setting: whole 134-nt RNA, ends assumed; added: 150 mM LiCl; reference: input library; direction: higher = stronger binding; measurement: log2 enrichment; each molecule: 7-deaza-guanosine replaces G
Target: Fragile X messenger ribonucleoprotein 1, C-terminal low-complexity region (Fmr1, Mus musculus, UniProt P35922)
Shared flanks, not repeated: GGGAGUUCUACAGUCCGACGAUC … UGGAAUUCUCGGGUGUCAAGG
Oligonucleotide = UGGGAGGUGGAUUUUGUUUAUUUUUUUAGCUCAUUUCCAGGGGUGGGAAUUUUUUUUUAAUAUGUGUCAUGAAUAAAGUUGUUUUUGAAU; value = 0.447
Oligonucleotide = CAAGUCCUGUGCUACACAUCGUAUGUACCGAAUCGUGUGUGUGUGUGUGUGUGUGAAAGUAUUAUGUUACGCCGUUCGGAUCUGCACUUC; value = -0.353
Oligonucleotide = CAAGUCCUGUGCUACACAUCGUAUGUACCGAAUCGGGUUUGGGUUUGGGGUUUGGAAAGUAUUAUGUUACGCCGUUCGGAUCUGCACUUC; value = -1.5
Oligonucleotide = AAGUCCUGUGCUACACAUCGUAUGUACCGAAUCGGGAAAAAGGGUUUGGGUUUGGGAAAGUAUUAUGUUACGCCGUUCGGAUCUGCACUU; value = -1.98
Oligonucleotide = UCCUGUGCUACACAUCGUAUGUACCGAAUCGGGAAAAAAGGGGAAAAAAGGAAAAAAGGAAAGUAUUAUGUUACGCCGUUCGGAUCUGCA; value = -0.268
Oligonucleotide = CUGUGCUACACAUCGUAUGUACCGAAUCGGGGAAAAAAAGGGGAAAAAAAGGGGAAAGGGGAAAGUAUUAUGUUACGCCGUUCGGAUCUG; value = 0.948
Oligonucleotide = CUCAAGUCCUGUGCUACACAUCGUAUGUACCGAAUCGGGGCGGGCGGGCGGGGAAAGUAUUAUGUUACGCCGUUCGGAUCUGCACUUCCA; value = -0.259
Oligonucleotide = CUCAAGUCCUGUGCUACACAUCGUAUGUACCGAAUCGGAAGGGGAAGGGAAGGGAAAGUAUUAUGUUACGCCGUUCGGAUCUGCACUUCC; value = -0.0521

Set 2 — technique: RNA Bind-n-Seq; form: RNA; matrix: in vitro; tested at: 365 nM; reference: no-protein control; direction: higher = stronger binding; measurement: RBNS enrichment (R)
Target: RNA binding protein fox-1 homolog 2, RRM domain, GST-SBP tag (RBFOX2, Homo sapiens, UniProt O43251-10, residues 100-194)
Setting: natural RNA segment, single round, ends assumed
Shared flanks, not repeated: GGGAGUUCUACAGUCCGACGAUC … UGGAAUUCUCGGGUGCCAA
Residues (chain): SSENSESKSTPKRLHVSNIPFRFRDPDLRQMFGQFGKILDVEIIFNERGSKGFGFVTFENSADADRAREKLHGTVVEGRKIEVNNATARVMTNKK
Oligonucleotide = UUGUCUCUUCUGUAAAAAUCCAACAUUAGGUAGAACUUGCUGUAAUUUAAAAGUCACAAAGUCAUUUAUAAAAAAUGAAGUGAUUAAAUAUUGACCGAGUAUUGUUGAGU; value = 0.919
Oligonucleotide = UCUGUGUCUCCUAGAAGCCUGACAGAGACCCCCAGGGCAGUGGGUGGGUGGCGGGCUAGAGACCCUUGCCUGUGUCCGGGACCCUGGCGCCGCUCUCCCCUCCUGUGGAU; value = 1.85
Oligonucleotide = AUGCUGUUCUCACUCCUCUCUUGGAAUUGUGCUGGCCCCUUAGUCUACAAUAAACUGUGCCAAUUAAAAACCUAAGGCUAAAACUGAAAGCCCUUUGAUGGGGUCUUAAC; value = 1.01
Oligonucleotide = AUACUAAGCAAUAACUUUACGAUCAACAGAAGAAAUUUUAAAACAGAGUCUCCUUUUCCCAUCCUUGGUGCAGACUGUGCCUGCCUGGACUCCGUAGAAAGCACUGGAUU; value = 0.711
Oligonucleotide = GUUUGGUAUUUUUUAAGGUAUGUCUCCCUGUUUGCACUCAGGGUUAAAGUGUCAGACUAAAUUUUUAGAAGAAAACAGAAAUUCAGGUGUGUGUUCAUUAUAGGUUAUUC; value = 2.49
Oligonucleotide = CUAACCCUCUUUUCCUACAAAGGAGAAAGAUAAAAGGCACAAAGGUUACCGCCAAGGCCCGUCAGCUGUGUAGUGGCAAAGCCGAGACCGAGUCUCCUAAGUCCCCGUCA; value = 0.329
Oligonucleotide = CCCAGGCCAUACUCCCUGCCUCCUUUCUUCUGCCUACCAGAGGCUCCAGAGUUGAGCUUGUCCUUAUCUAGAAACAUGUGAAGAUGCCCAAGAGCCUGGAGGCACUGCUG; value = 0.5
Oligonucleotide = UUGGGCGCAGGGUGGGUGUUGGGGAGAUCCCUUCCAGGUUGGGGCAGGACUGGGUGGGAGGACCCCUAGGCUGCCCUCACCUUCUGCCUUCUCCAGCCGCCCUUCACUGC; value = 0.305

Set 3 — technique: aptamer microarray, sandwich; form: DNA with 2'F-ANA; matrix: in vitro; tested at: 200 nM; added: Cy3 exosite-II aptamer, 400 nM; direction: higher = stronger binding; measurement: mean fluorescence intensity; oligonucleotide: GGTTGGTGTGGTTGG
Target: Prothrombin, mature alpha-thrombin (F2, Homo sapiens, UniProt P00734)
Setting: whole 15-mer aptamer, many near background
Modification = 2'F-ANA at 1 2 5 7 8 10 11 12 13; value = 47.8 a.u.
Modification = 2'F-ANA at 2 5 8 9 10 11 13; value = 49.3 a.u.
Modification = 2'F-ANA at 1 5 7 9 11 12 13 15; value = 66.5 a.u.
Modification = 2'F-ANA at 2 4 5 6 9 11; value = 119 a.u.
Modification = 2'F-ANA at 1 10 12 13 14; value = 45.7 a.u.
Modification = 2'F-ANA at 2 3 4 5 6 7 8 9 14; value = 72.2 a.u.
Modification = 2'F-ANA at 1 2 5 8 9 10 11 12 14 15; value = 60.7 a.u.
Modification = 2'F-ANA at 1 3 5 7 8 9 10 11 12; value = 49.4 a.u.
Modification = 2'F-ANA at 1 2 4 6 9 10 12 13 14; value = 45 a.u.
Modification = 2'F-ANA at 2 5 6 7 12 14 15; value = 50 a.u.
Modification = 2'F-ANA at 2 3 5 6 9 10 12 13; value = 52.4 a.u.
Modification = 2'F-ANA at 1 3 4 6 7 8 9 10 12 15; value = 94.2 a.u.
Modification = 2'F-ANA at 1 4 6 11 12 13 14; value = 49.4 a.u.
Modification = 2'F-ANA at 1 3 5 13 14 15; value = 45 a.u.
Modification = 2'F-ANA at 1 2 4 8 10 11 12 13; value = 61.8 a.u.
Modification = 2'F-ANA at 1 6 7 10 13 14 15; value = 45.4 a.u.
Modification = 2'F-ANA at 2 3 4 7 8 10 11 13 15; value = 205 a.u.
Modification = 2'F-ANA at 1 2 3 4 6 8 13 14 15; value = 71.9 a.u.
Modification = 2'F-ANA at 1 2 4 6 7 8 9 12 14; value = 64.7 a.u.
Modification = 2'F-ANA at 3 5 7 11 14; value = 60.3 a.u.

Set 4 — technique: protein binding microarray; form: double-stranded DNA, one strand shown; matrix: in vitro; tested at: not given; reference: not given; direction: higher = stronger binding; measurement: E-score
Target: Histone acetyltransferase KAT6A, winged helix 1, GST fusion (KAT6A, Homo sapiens, UniProt Q92794, residues 1-85)
Setting: 8-mer, flanks averaged, mean of 2 arrays, mostly near background
Residues (chain): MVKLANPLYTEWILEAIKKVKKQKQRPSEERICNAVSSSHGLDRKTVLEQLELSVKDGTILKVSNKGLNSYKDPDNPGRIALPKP
Oligonucleotide = ATTTTATG; value = -0.0797
Oligonucleotide = GCTGTTTA; value = -0.144
Oligonucleotide = ACGCCTCG; value = 0.21
Oligonucleotide = ACCGACGA; value = 0.0406
Oligonucleotide = AACCTATC; value = -0.0669
Oligonucleotide = CCTTTACC; value = 0.0938
Oligonucleotide = AAATATAT; value = -0.127
Oligonucleotide = ACCAGCAC; value = -0.333
Oligonucleotide = AATATGTC; value = -0.11
Oligonucleotide = GGGGTGAA; value = -0.174
Oligonucleotide = CCTGTTAC; value = -0.111
Oligonucleotide = CATACGTC; value = 0.0921
Oligonucleotide = CCAAAGGG; value = -0.209
Oligonucleotide = GTACGTAA; value = -0.0624
Oligonucleotide = CCAGCCCG; value = 0.122
Oligonucleotide = GAGCGCGC; value = 0.433
Oligonucleotide = AAATACCT; value = -0.0866
Oligonucleotide = ATCCACAA; value = -0.217
Oligonucleotide = ATCGCTCA; value = 0.107
Oligonucleotide = AATCTGTG; value = -0.166
Oligonucleotide = GGACTTAA; value = -0.0519
Oligonucleotide = ACGGGAAA; value = 0.225
Oligonucleotide = AACTAGGC; value = -0.0538
Oligonucleotide = ACAATTCC; value = -0.195
Oligonucleotide = ATTCATTG; value = -0.123

A few entries again (set 3):
Modification = 2'F-ANA at 1 10 12 13 14; value = 45.7 a.u.
Modification = 2'F-ANA at 2 3 4 5 6 7 8 9 14; value = 72.2 a.u.
Modification = 2'F-ANA at 1 2 5 8 9 10 11 12 14 15; value = 60.7 a.u.
Modification = 2'F-ANA at 1 3 5 7 8 9 10 11 12; value = 49.4 a.u.
Modification = 2'F-ANA at 1 2 4 6 9 10 12 13 14; value = 45 a.u.
